Assay results pooled from the literature.
A part holds a random share of what one study measured.

Set 1
Target: Histone acetyltransferase KAT6A, both winged helices, GST fusion (KAT6A, Homo sapiens, UniProt Q92794, residues 1-181)
Technique: protein binding microarray
Molecule type: double-stranded DNA, one strand shown
Sample: in vitro
Tested at: not given
Setting: 8-mer, flanks averaged, mean of 2 arrays, mostly near background
Relative to: not given
Reading: higher = stronger binding
Residues (chain): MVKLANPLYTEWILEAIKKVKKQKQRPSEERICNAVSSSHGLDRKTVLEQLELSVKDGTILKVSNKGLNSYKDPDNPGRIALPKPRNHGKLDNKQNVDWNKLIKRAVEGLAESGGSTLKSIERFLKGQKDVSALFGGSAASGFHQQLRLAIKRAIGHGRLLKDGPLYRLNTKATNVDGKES
For `GACCGTGA`, the E-score was 0.119.
With `GCAACGGC` the E-score was 0.271.
With `ACCTTACG` the E-score was 0.165.
The E-score of `CACCCCAA` is reported as -0.259.
`TCCAACCA` has an E-score of -0.122.
For `AAAGGGTG`, the E-score was -0.126.
`CTATAGAC` gave an E-score of -0.0595.
For `CCCTGAAG`, the E-score was -0.134.
With `AGGGGCTG` the E-score was -0.16.
The E-score of `ACCCAGAT` is reported as -0.238.
`ACGCAACA` gave an E-score of 0.0638.
The E-score of `GATGACCC` is reported as -0.146.
For `CTTCCTGA`, the E-score was -0.25.
`ACATCAGA` has an E-score of -0.207.
`GGAGGCCA` has an E-score of -0.218.
`TCACGAGA` gave an E-score of -0.222.
The E-score of `TACACATA` is reported as -0.099.
With `AGGTTACC` the E-score was 0.047.
With `CCATAATC` the E-score was -0.184.
`ACTCTACT` has an E-score of -0.13.
The E-score of `ACTAGGGC` is reported as -0.119.
With `AACTCCAA` the E-score was -0.151.
With `AAGGAGTA` the E-score was -0.146.
For `ATATTTAG`, the E-score was -0.0221.
`CGAACTAC` has an E-score of -0.0353.

Set 2
Target: RNA binding protein fox-1 homolog 2, RRM domain, GST-SBP tag (RBFOX2, Homo sapiens, UniProt O43251-10, residues 100-194)
Technique: RNA Bind-n-Seq
Molecule type: RNA
Sample: in vitro
Tested at: 365 nM
Setting: natural RNA segment, single round, ends assumed
Relative to: no-protein control
Reading: higher = stronger binding
Constant ends, left off below: GGGAGUUCUACAGUCCGACGAUC … UGGAAUUCUCGGGUGCCAA
Residues (chain): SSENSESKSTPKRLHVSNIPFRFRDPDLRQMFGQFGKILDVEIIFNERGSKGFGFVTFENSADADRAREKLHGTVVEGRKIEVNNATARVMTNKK
`UCCAAAAGAGUUUGAUUCUGGCACAUUCUUGCCGCUGCCCCCAAGUUAACAACAGUAGGUAAUUUGCACACCUCUGGCUCUGUGCCUUUCUAUUAGGACUUUUUGGCAGA`: “RBNS enrichment (R)” 0.53.
`GCAAUCUGGAGAGAGACUCGGUAGGAGUGUGUUGUCUUCUACUCGCAGUGCAUUGAAGGACCCAAGUCCUCAGCCUACUUUCCUACUUUCUGACUGUAGUAAAAGCUGCU`: “RBNS enrichment (R)” 0.824.
`AGCACUGUUUUCAUCACAACUUGUUUUCCCAGCAUCAUGUAGUGCAUUUAGUUUUGUCUUUCUCAGGGUAUAGUCAAUAUGCCUGCAGGAGUUUCUAUAGCGAGACAUAG`: “RBNS enrichment (R)” 0.394.
Under “RBNS enrichment (R)”, `GUAACAGCAAAGUAUAUAUUUGAUGUUUUCUGUCUUUCAUGAUAUUGUGCUAACAAGUUGUGCUAAUAUUUAACUCAGCCAGAGUUUCACUCAUUUGCUAAGCAUUGGGA` is recorded as 0.334.
For `CCCCUCUGCUUCAGGAAGGCCCUAUAGGGCCCACCUUCCCGCCCUGCCCACCUGGCCUUUGCACUUCACCCUCACCAGCUACUGGCCACCAUUCAGUCUCCCCCUUUUCC`, “RBNS enrichment (R)” read 0.976.
Under “RBNS enrichment (R)”, `UCUUCCAAAGCAGCAAGUCAAUCAAUACAAUAAUGAUAUUUGGGGAGGGGUGGGAGCCCUUAAGAACUAUUGAUGUGGCCUUAAAUUACUGUCAUUUAUUAUCCUAAAGA` is recorded as 0.499.
For `GCUGUUGUUUGUUUCAUAAUUGGAUCAGUCCAUAGCUACCCACAUUGCACUGAGCUUGCCAGUGGUGACUGCCAGGAACGCCUAGGAUCCACUUUGGUGGCUGUUGUUGC`, “RBNS enrichment (R)” read 0.673.
For `GAACUUGGAUUCCCCUGGGUAGAUGGAAACUGCAAAAACCCAAAGCCUCCAAAACUAACCAGGUCCACCUAACACCCCCUCCCUCCCCUAAGAAGAUGGAUGUCCUCAAA`, “RBNS enrichment (R)” read 0.456.
`CCCUAGGUUUAGAAAAACAACUUUAGAAAUUCCUCCUCCCACCCUCGUAAACCCUGGCACUCCCUCCUUUAAUGGGGGCUCCCAUAAGACCCAUCUUUCCCUGCAGCUCA`: “RBNS enrichment (R)” 0.934.
`AUGUUCUAACAGCAUCUGCCUCUAUUCAAUUUAAUUCUUAUUUCUGUGUUACUCAUGUACAUUGGUCUUUCUACAUAGUUAUUCUAUCACUGGCAAUAUUUGUUCUGGUU` — result for “RBNS enrichment (R)”: 1.13.
`UUUUGUUUUCCAUUGAGUGUACACUACUGAAUAAGUGUAGGAGUUUUAUGUUUACCAUGUGAGUCCUGCAACACUAAAGAUAUUUUGAAUAUCAGUCAUGAUGGCAAUUU`: “RBNS enrichment (R)” 0.363.
`UUUCUCAUGUACAGGGGCAGCGUGUCUGUGUGUGGAGGGUCCGGGUUACAAGGUAAGCUAGGUUGCCCACUUGCCCACUCGUCCUCUCCCUGCUGCAGUCUCUUGGGUCU` — result for “RBNS enrichment (R)”: 0.32.

Set 3
Target: RING finger protein unkempt homolog, zinc fingers 1-6, GST-SBP tag (UNK, Homo sapiens, UniProt Q9C0B0, residues 30-357)
Technique: RNA Bind-n-Seq
Molecule type: RNA
Sample: in vitro
Tested at: not given
Setting: RNA with constant flanks, ends assumed
Relative to: input RNA pool
Reading: higher = stronger binding
Constant ends, left off below: GGGAGUUCUACAGUCCGACGAUC … CAACAGAGGAUUGAGCAUCA
Construct (chain): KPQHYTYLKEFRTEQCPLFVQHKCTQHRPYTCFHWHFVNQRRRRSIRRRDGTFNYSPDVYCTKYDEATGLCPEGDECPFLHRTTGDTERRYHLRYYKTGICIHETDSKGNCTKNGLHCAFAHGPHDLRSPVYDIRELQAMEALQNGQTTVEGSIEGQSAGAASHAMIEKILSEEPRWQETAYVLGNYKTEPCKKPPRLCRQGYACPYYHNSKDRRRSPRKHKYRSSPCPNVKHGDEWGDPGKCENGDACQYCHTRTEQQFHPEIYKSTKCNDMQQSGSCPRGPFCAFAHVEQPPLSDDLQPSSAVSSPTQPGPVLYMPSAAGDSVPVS
`AAAUUCAAAGGCCCCUUCACAGAUGUAGUCACUACAAAUCUUAAAUUGCGAAAUCCAUCGGACCGAAAAGUGUGUUUCAAAGUGAAGACUACAGCACCUCGCCGGUACUGUGUGAGGCCC` gave a bound/input enrichment of 0.259 ratio.
`AAAAGACCAUAUGUUGAUUCUACCUGUGUUCUGUUCCAGCGAAUUGGGAAGUCUCACCAAGCCCGAUUGUCUACCAUCAGCCCAGAACUCUGUAACUUUUCAGAACUGCUAUACUCAAAC` has a bound/input enrichment of 0.157 ratio.
The bound/input enrichment of `GCUGUGGAUUCAGAGAUACUGGAGAUGCCACCUGAAAAAGCAGAUGGAGUAGUGGAGGGGACCGAUGUAAAUGGACCAAAAGCACAGCUGAUGUUGCGGUAUCCAGAUGGAAAAAGGGAA` is reported as 0.39 ratio.
`GAUCGUCAAUCGAUGUAGGAGGGCAGUGGUCUUGGGUUGAGUCAGAAAGCCUGGGAGGAAACCCGAGAGGAAGCCAGCCAGGACGUGACACUCCUUCAUGGUGUCUGCUUCAGCUCCUAC` has a bound/input enrichment of 0.0822 ratio.
The bound/input enrichment of `CUAAAGGCAGAAAACCUGCUCCUGGAUGCUGAUAUGAACAUCAAGAUUGCAGACUUUGGCUUCCGCAACGAAUUCACCUUUGGGAACAAGCUGGAUACUUUCUGUGGCAGUCCUCCUUAU` is reported as 0.0984 ratio.
The bound/input enrichment of `UGUCUGCCUCAUUCUAAAAUUUACACAGUAGACCAUUUGUCAUCCAUGCUGUCCCACAGACCGUUUUUUUGUUUACGAUUUAUGACAGGUUUAUGUUACUUCUAUUUGAAUUUCUAUAUU` is reported as 0.39 ratio.
With `GGUCCGCCAAUAGAAAAUGGAUUCUAUUAUGACAUGUACCUCGAAGAAGGGGGUGUGUCCCGCAAUGAUUUCUCUUCUCUGGAGGCUUUGUGUAAGAAAAUCAUUAAAGAAAAACAAGCU` the bound/input enrichment was 0.37 ratio.
With `UGUGAUCAUGCCAAUCCACAGCUUUCAAAUCCAAGCCCUUUUCAGACACUUGGGCUGGACUCCGUUUUGGAAUGUGUUGCUAGGUACCAGCCUAAGCAGCGUUCAAUGUUUACCUUUGUA` the bound/input enrichment was 0.171 ratio.
`CAGAUGAGGAAACUGAGGCCCAGAGAAGCGGAAAGGACUUCCCUAGACCUUACAGUAAAUCCGCAUUAAAUGCAGCCUUCCUACCUAGUGGGCACCUUGCUUACAAAAAUUUACCUAGGG` gave a bound/input enrichment of 0.276 ratio.
For `ACUGAAUUAAAUCAUCAUGCAUAUUUAUUUCUCCAAAGCACCUUUGACAAGCAUGAUUUGGACCGAGACUGUGCUUUGUCACCUGAUGAGCUUAAAGAUUUAUUUAAAGUUUUCCCUUAC`, the bound/input enrichment was 0.222 ratio.
The bound/input enrichment of `AAAAUAUAUAUAAAUUUACUUCACUGCUUUUUUUUUUUUUGGACAUAAGGGCUGUGUGUAUACCGCCCCUGUUGGCCUCAAAACUCACAGUCCUCUCAUCAAGAGGUAGGAUUCUGGGCA` is reported as 0.853 ratio.

Set 4
Target: Centromere-binding protein 1, full length, His-tagged (CBF1, Saccharomyces cerevisiae, UniProt P17106, residues 1-351)
Chain of UniProt P17106 (whole entry, looked up): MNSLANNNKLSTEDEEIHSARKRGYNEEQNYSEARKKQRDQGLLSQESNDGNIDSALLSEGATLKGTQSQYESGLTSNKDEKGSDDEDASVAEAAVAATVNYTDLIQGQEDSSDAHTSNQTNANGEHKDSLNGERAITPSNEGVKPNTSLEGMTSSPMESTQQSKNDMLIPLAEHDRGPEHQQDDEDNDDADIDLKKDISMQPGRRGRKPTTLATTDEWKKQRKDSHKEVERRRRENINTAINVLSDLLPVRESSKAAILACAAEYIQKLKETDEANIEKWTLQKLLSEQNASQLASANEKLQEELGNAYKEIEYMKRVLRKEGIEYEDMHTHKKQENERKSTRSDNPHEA
Technique: competition protein-binding microarray
Molecule type: double-stranded DNA, one strand shown
Sample: in vitro
Tested at: 2 µM
Setting: whole 60-bp probe, lowest competitor level
Together with: Pho4 competitor, 0.05 µM
Reading: higher = stronger binding
Constant ends, left off below: … GTCTTGATTCGCTTGACGCTGCTG
With `CTTTCCCGATCTTGTCACGTTACTTTAGCACATTTG` the fluorescence intensity was 1060 a.u.
For `CTTTCCCGATCTTGCCATGTGGGTGTAGCACATTTG`, the fluorescence intensity was 89.7 a.u.
`AAATTACTAAGTTGTGGGGTGGGTGACGCCGTATGA` gave a fluorescence intensity of 83.1 a.u.
For `TTTTACAGCTGCAATCAGGTGGATTCGTTTCTTCGA`, the fluorescence intensity was 105 a.u.
The fluorescence intensity of `TCAAGAAAAATTCATCACCTGACTGCAAAATAAAGC` is reported as 2440 a.u.
`GCGAGAATTTGCACACATGTGACGCTGAATGTATAT` has a fluorescence intensity of 1390 a.u.
The fluorescence intensity of `TGCATTCTGAAGTTACACGTCACTAACCAGCACTAT` is reported as 83.5 a.u.
`TGTGGATCATATCTCATATCTTCACATATACGAACA` has a fluorescence intensity of 72.3 a.u.
With `CGTCCTAGTGATTGCAGAGTGGGTGCCATGAGGAAG` the fluorescence intensity was 88.8 a.u.
With `CGATGTATCTTCCGTCACCTGCACCACCACAATTGA` the fluorescence intensity was 147 a.u.
The fluorescence intensity of `CATACCCCTCAGTTCCACGGGGTAAAAAAAAAACTT` is reported as 115 a.u.
For `GGTGTAACATTCAGATGCGTGCGATATTTATTCTCT`, the fluorescence intensity was 85.9 a.u.
`TTTTACGGACATAAGAACGTGCCGACCATTCTGGGA` gave a fluorescence intensity of 116 a.u.
With `CTAACGAAGGTTTGTACGGTGGGTGACAAGCCAAGT` the fluorescence intensity was 65.5 a.u.
The fluorescence intensity of `AAATTACTAAGTTGGTACGTGGGTGACGCCGTATGA` is reported as 68.2 a.u.
`TGCGCAACAACTTGTCACTCTACTTTATGTCTAGAA` gave a fluorescence intensity of 78.9 a.u.
With `GCAAGTCGACACAGCAACGTGTGGATAATGGATGAG` the fluorescence intensity was 85.3 a.u.

For quick reference, copied from above (set 4):
For `GGTGTAACATTCAGATGCGTGCGATATTTATTCTCT`, the fluorescence intensity was 85.9 a.u.
`TTTTACGGACATAAGAACGTGCCGACCATTCTGGGA` gave a fluorescence intensity of 116 a.u.
With `CTAACGAAGGTTTGTACGGTGGGTGACAAGCCAAGT` the fluorescence intensity was 65.5 a.u.
The fluorescence intensity of `AAATTACTAAGTTGGTACGTGGGTGACGCCGTATGA` is reported as 68.2 a.u.
`TGCGCAACAACTTGTCACTCTACTTTATGTCTAGAA` gave a fluorescence intensity of 78.9 a.u.
With `GCAAGTCGACACAGCAACGTGTGGATAATGGATGAG` the fluorescence intensity was 85.3 a.u.
